Assay results collected from several papers.
Protocols differ between the studies behind these lines. ± gives the spread as reported.

| Compound | tested on | assay | setting | scale | endpoint | value |
| --- | --- | --- | --- | --- | --- | --- |
| Cc1cc(Nc2ncc(Cl)c(Nc3ccccc3S(=O)(=O)C(C)C)n2)c(OC(C)C)cc1C1CCNCC1 | CLB-GE | phosphoproteomics LC-MS/MS, item: FNBP1L phosphorylation | 200 nM, 60 min | relative to: untreated | log2 fold change | -2.35 |
| CCn1cc(-c2cc(Cn3ccnc3)cc3c2CCN([C@H](c2cc(OC)ccn2)C2CC2)C3=O)c(C(F)(F)F)n1 | Toledo | cell growth | 120 h |  | EC50 | 15.3 nM |
| Nc1ccn([C@@H]2O[C@H](COP(=O)(O)OP(=O)([O-])OP(=O)([O-])O)[C@@H](O)[C@H]2O)c(=O)n1.[Na+].[Na+] | Nedd8-cullin1 interaction | neddylation, AlphaScreen | 100 µM |  | inhibition | 45.1% |
| O=C(O)c1cc(Cl)ccc1S(=O)(=O)NCCCCN1C(=O)c2cccc3cccc(c23)C1=O | IEC-6 |  | 3.0 µM, 0.5 h, together with: Adriamycin 1.7 µM 30 min |  | caspase-3/7 activity decrease | ~50% |
| Cc1ccc(S(=O)(=O)NNC(=O)COC(=O)c2ccccc2Nc2cccc(C(F)(F)F)c2)cc1 | RAW264.7 | Western blot | concentration not given, 72 h, unit not given, together with: LPS | relative to: control | mTOR protein level | 0.329 |
| Cc1c(-c2c(-c3ccc(F)o3)sc3ncnc(O[C@H](Cc4ccccc4OCc4ccnn4CC(F)(F)F)C(=O)O)c23)ccc(OCCN2CCN(C)CC2)c1Cl | HD-MB03 | cell growth | DMSO |  | IC50 | 1250 nM |
| c1ccc2[nH]ccc2c1 | HCT-8 | RNA-seq, item: FBXO32 | concentration not given |  | mRNA level, LS mean | 15.8 counts per million |
| CCn1cc(-c2cc(Cn3ccoc3=N)cc3c2CCN([C@@H](C)c2cc(OC)ccn2)C3=O)c(C(F)(F)F)n1 | NCI-H358 | cell growth, inhibitor | 120 h |  | EC50 | 159 nM |
| Cc1cc(NS(=O)(=O)c2ccc(NC(=O)/C(C#N)=C/c3ccc(N4CCCCC4)cc3)cc2)no1 | HCT-116 | ELISA, item: caspase-3 | IC50, 48 h |  | protein level | 4.75 ng/mg |
| C=CCn1c(=O)c2cnc(Nc3ccc(N4CCN(C)CC4)cc3)nc2n1-c1ccc2c(n1)[C@@](O)(CC)CC2 | NCI-H1048 | flow cytometry | concentration not given |  | G2/M phase mitotic cells | 14% |
| COc1c(C)cnc(Cn2cnc3c(Cl)nc(N)nc32)c1C | HD-MB03 | cell growth | 168 h, DMSO |  | IC50 | 150 nM |
| Cn1cc(-c2ccc(-c3cncc(Cl)c3N3CCC4(CCNC4=O)CC3)cc2)cn1 | COLO 205 | gene expression, microarray, item: FAS mRNA | concentration not given, 6 h | relative to: untreated cells | log2 fold change | 4.15 |
| Cc1c(C(=O)Nc2ccc(N3C[C@@H](C)O[C@@H](C)C3)nc2)cccc1-c1ccc(OC(F)(F)F)cc1 | HD-MB03 |  | 168 h |  | IC50 | inactive |
| COc1cnc2cccc(N3CCc4c(cc(Cn5ccnc5C)cc4-c4cn(C)nc4C(F)(F)F)C3=O)c2c1 | DMS-273 | cell growth, inhibitor | 120 h |  | EC50 | 3160 nM |
| C[C@H](Nc1ccc2c(c1)OCCn1cc(N3C(=O)OC[C@H]3C(F)F)nc1-2)C(N)=O | NCI-H1048 | cell growth, CellTiter-Glo | 120 h |  | Hill coefficient GR curve | 0.595 |
| Cc1ccc2oc(=O)cc(NCCO)c2c1 | COS-7, untransfected |  | 500 µM, relative to vehicle, unit not given | relative to: 3 µM ionomycin response | Ca2+ mobilisation | 3.15 ± 1.93 |
| CCN(c1nc(N)c(C(=O)NC(=N)N)nc1Cl)C(C)C | HMC3 | endocytosis, flow cytometry | 30 µM, 2 h pretreatment then 3 h, together with: FITC-Aβ 25 µM |  | reduction of Aβ-positive cells | 14.4% |
| CC(C)NCC(O)c1ccc(O)c(O)c1 (centres unmarked) | mouse ventricular cardiomyocytes |  | dose not given, 0.407 s |  | sarcomere length | 1.79 µm |
| Cc1n[nH]c2nc(-c3ccc(Cl)cc3)c3c(NC(=O)c4ccccc4)nnc-3n12 | A549/ATCC | NCI60 SRB | 10 µM |  | growth percent | 110% |
| CO[C@H]1C[C@@H]2CC[C@@H](C)[C@@](O)(O2)C(=O)C(=O)N2CCCC[C@H]2C(=O)O[C@H]([C@H](C)C[C@@H]2CC[C@@H](OC(=O)C(C)(CO)CO)[C@H](OC)C2)CC(=O)[C@H](C)/C=C(\C)[C@@H](O)[C@@H](OC)C(=O)[C@H](C)C[C@H](C)/C=C/C=C/C=C/1C | HD-MB03 | cell growth | 168 h, single agent |  | IC50 | 155 nM |
| CCCCc1oc2ccc(NS(C)(=O)=O)cc2c1C(=O)c1ccc(OCCCN(CCCC)CCCC)cc1 | human embryonic stem cell aggregates | mRNA level, microarray, item: SFRP2 | 0.5 µM, 120 h | relative to: untreated, up-regulated | fold change | 2.3 fold |
| CCN(Cc1cnc2nc(N)nc(N)c2n1)c1ccc(C(=O)N2CCC(C(=O)OC)CC2)cc1 | 786-O | high-content imaging, item: MitoTracker Red uptake | 10 µM |  | mitochondrial toxicity | -8.37 ± 6.97% |
| Cc1ccc(C)c(OCCCC(C)(C)C(=O)O)c1 | Nedd8-cullin1 interaction | neddylation, AlphaScreen | 100 µM |  | inhibition | 18.6% |

Repeated from above:
| Compound | tested on | assay | setting | scale | endpoint | value |
| --- | --- | --- | --- | --- | --- | --- |
| Cn1cc(-c2ccc(-c3cncc(Cl)c3N3CCC4(CCNC4=O)CC3)cc2)cn1 | COLO 205 | gene expression, microarray, item: FAS mRNA | concentration not given, 6 h | relative to: untreated cells | log2 fold change | 4.15 |
| Cc1cc(NS(=O)(=O)c2ccc(NC(=O)/C(C#N)=C/c3ccc(N4CCCCC4)cc3)cc2)no1 | HCT-116 | ELISA, item: caspase-3 | IC50, 48 h |  | protein level | 4.75 ng/mg |
